Experimental data of several laboratories.
Numbered parts are unrelated; each lists some results of a single study. Changes are numbered by the printed parent chain.
Chain of UniProt P41145 (whole entry, looked up): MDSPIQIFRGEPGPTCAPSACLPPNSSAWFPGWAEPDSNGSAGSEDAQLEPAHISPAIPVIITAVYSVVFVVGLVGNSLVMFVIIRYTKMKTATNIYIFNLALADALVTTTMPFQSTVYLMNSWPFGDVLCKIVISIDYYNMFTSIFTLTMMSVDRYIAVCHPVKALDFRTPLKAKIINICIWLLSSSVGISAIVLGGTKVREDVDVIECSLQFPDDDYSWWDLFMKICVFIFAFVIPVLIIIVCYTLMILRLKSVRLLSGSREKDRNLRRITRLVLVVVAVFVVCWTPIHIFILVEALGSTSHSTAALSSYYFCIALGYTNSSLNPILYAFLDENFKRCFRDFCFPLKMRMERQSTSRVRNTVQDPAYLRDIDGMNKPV
Chain of UniProt P29376 (whole entry, looked up): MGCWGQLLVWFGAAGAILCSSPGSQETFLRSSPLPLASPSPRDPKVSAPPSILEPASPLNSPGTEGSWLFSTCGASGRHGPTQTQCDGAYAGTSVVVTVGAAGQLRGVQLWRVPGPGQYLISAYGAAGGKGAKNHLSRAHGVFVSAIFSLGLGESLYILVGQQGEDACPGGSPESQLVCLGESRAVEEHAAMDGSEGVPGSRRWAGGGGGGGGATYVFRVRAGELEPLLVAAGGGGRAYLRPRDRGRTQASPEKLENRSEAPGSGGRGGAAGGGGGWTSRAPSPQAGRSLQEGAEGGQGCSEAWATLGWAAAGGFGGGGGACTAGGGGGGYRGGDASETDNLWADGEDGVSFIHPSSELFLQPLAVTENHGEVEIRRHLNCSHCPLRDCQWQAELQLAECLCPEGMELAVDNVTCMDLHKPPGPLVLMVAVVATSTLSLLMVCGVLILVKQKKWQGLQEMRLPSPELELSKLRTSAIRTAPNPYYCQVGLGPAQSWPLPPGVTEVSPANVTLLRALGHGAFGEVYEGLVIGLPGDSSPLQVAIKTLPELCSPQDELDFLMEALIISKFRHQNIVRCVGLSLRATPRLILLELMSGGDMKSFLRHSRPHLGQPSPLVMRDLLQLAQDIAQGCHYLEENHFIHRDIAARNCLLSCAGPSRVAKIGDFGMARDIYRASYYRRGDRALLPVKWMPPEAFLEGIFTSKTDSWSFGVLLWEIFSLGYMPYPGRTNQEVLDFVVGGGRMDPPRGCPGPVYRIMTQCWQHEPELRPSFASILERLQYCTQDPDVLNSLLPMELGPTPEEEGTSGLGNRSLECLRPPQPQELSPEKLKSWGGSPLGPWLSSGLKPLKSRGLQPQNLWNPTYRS

Series 1 — target: CRIPT, C-terminal peptide; technique: DHFR complementation, deep sequencing; medium: yeast; relative to: wild type; reading: higher = weaker binding; measurement: binding free energy change
Notes: single substitutions, model-inferred values
Starting sequence: ERBIN, PDZ domain 1 (human); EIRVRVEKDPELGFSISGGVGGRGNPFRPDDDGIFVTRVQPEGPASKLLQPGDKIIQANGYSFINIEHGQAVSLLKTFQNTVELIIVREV; partner TKNYKQTSV
K76C: 0.489 kcal/mol
I86R: 1.5 kcal/mol
G33D: 0.506 kcal/mol
I34V: 0.331 kcal/mol
K76P: 1.6 kcal/mol
Q57G: -0.22 kcal/mol
V6S: 0.803 kcal/mol
E89C: 0.0761 kcal/mol

Series 2 — target: CCNF, cyclin fold, Cln2 fusion (human); technique: yeast growth competition, sequencing; medium: yeast; notes: strong parent motif; relative to: not given; reading: higher = stronger binding; measurement: normalised enrichment score; starting sequence: viral docking peptide; KKVKRRLFETREL
KKVKKRLLETREL [R5K F8L]: 0.943
KKVKARAFETREL [R5A L7A]: 0.435
KKVKRRLFETREA [L13A]: 7.52
KKVKRRLFEAREL [T10A]: 7.44
KKVKRALFETREL [R6A]: 4.61
KKVARRLFETREL [K4A]: 7.92
KKVKRRAFETREL [L7A]: 2.77
KKVKRRLLETREL [F8L]: 0.897
KAVKRRLFETREL [K2A]: 7.25
AKVKRRLFETREL [K1A]: 7.55

Single results of other studies
O=c1c2ccccc2[nH]c(=S)n1CCN1CCC(=C(c2ccc(F)cc2)c2ccc(F)cc2)CC1  remaining activity (LTK (Homo sapiens, UniProt P29376); enzyme activity, inhibitor, radiometric; 0.5 µM): 97.9%
N#CN1CC[C@H](C(=O)Nc2nc3c(s2)CN(C(=O)CN=[N+]=[N-])CC3)C1  inhibition (OPRK1 (Homo sapiens, UniProt P41145); ligand displacement; 10 µM): 0.19%

A few entries again (series 2):
KKVKARAFETREL [R5A L7A]: 0.435
